Measurements collected from several papers.
Every numbered part comes from another study and shows a few of its results, in no order.
Chain of UniProt Q15375 (whole entry, looked up): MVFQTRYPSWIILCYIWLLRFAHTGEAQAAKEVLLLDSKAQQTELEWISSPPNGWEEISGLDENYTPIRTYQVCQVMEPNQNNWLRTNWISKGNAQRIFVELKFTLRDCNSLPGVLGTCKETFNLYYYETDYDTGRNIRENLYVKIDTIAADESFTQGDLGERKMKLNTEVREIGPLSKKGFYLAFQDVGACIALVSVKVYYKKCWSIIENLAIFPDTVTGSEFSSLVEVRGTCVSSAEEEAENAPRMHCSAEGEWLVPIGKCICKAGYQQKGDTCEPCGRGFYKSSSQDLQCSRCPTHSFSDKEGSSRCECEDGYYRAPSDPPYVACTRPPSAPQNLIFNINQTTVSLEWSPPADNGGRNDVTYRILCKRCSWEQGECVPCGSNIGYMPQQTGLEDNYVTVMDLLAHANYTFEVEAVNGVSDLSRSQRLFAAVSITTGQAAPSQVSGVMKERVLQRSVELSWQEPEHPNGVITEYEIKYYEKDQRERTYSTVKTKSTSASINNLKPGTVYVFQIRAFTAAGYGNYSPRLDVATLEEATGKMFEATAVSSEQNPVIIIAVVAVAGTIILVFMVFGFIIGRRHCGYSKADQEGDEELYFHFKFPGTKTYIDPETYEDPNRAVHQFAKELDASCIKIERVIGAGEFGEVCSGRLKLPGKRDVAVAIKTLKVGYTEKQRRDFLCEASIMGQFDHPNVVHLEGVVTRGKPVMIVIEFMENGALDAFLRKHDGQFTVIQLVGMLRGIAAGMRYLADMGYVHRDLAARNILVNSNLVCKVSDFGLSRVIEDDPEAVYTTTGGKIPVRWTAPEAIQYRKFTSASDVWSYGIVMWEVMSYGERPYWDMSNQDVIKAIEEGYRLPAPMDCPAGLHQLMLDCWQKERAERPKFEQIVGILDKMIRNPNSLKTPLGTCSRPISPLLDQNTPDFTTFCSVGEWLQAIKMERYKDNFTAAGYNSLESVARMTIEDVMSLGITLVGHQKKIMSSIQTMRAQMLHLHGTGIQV
Chain of UniProt P29597 (whole entry, looked up): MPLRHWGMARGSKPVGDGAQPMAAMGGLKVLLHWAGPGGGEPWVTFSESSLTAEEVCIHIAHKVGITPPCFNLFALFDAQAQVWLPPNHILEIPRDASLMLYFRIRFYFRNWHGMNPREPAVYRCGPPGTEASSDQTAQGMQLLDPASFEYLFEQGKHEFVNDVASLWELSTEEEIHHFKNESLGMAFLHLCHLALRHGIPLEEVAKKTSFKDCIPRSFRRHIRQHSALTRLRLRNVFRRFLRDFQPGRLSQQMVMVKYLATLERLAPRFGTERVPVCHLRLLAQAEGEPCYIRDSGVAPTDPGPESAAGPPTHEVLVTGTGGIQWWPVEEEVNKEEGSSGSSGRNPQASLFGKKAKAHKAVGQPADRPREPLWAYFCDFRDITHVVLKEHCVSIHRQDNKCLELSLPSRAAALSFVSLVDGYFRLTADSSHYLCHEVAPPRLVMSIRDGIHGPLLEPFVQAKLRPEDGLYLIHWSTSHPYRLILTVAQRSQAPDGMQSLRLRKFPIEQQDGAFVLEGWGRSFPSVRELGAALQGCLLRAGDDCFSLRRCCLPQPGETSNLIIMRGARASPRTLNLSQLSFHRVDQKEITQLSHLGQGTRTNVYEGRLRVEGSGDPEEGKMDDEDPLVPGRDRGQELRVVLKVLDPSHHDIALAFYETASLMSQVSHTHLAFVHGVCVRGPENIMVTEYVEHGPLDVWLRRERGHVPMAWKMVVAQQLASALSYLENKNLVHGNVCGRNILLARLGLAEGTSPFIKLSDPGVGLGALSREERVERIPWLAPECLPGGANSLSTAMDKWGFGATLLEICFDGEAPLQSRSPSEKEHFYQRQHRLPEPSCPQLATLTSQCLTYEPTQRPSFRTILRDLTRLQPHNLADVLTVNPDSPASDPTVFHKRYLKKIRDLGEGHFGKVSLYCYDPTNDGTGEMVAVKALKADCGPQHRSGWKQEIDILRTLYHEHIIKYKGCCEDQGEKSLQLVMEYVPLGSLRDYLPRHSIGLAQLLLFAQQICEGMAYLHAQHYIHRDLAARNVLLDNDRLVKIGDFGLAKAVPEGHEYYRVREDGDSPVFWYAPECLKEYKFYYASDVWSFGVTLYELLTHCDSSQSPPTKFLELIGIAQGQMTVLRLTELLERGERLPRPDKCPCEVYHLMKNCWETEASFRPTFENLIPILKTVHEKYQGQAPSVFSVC
Chain of UniProt Q86YV6 (whole entry, looked up): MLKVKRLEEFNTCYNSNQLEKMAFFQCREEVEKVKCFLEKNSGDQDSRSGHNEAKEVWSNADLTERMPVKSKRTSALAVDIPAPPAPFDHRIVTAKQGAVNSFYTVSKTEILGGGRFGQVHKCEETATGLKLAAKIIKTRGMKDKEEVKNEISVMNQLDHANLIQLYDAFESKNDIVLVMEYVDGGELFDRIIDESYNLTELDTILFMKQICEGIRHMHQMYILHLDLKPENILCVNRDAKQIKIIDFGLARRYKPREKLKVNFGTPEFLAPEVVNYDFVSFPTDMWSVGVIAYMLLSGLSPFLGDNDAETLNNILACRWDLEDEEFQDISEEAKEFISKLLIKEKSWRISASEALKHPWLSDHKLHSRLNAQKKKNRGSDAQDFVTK

Block 1
SMILES: CC(C)n1cnc(-c2ccc(F)cc2)c1-c1ncc(C(=O)Nc2ccc(N3CCN(C)CC3)cc2)[nH]1
Technique: Phase 2a trial
Host: idiopathic pulmonary fibrosis patients
assay	conditions	patients with adverse events
item: oral herpes	oral, dose not given, grade 5 maximum intensity, all arms	0%
item: back pain	dose not given, grade 4 maximum intensity, all arms	0%
item: neutrophil count increased	30 mg once daily, grade 2 maximum intensity	0%
item: weight increased	dose not given, grade 4 maximum intensity, all arms	0%
item: vision blurred	dose not given, grade 2 maximum intensity, all arms	0%

Block 2
Host: human
Matrix: microsomes or S9
Tested at: 2 µM
Time: 0.5 h
Compound	remaining compound [%]
COc1ccc2ccccc2c1-c1cc(CN)on1	37.5
Cc1c(C)c(C)c(CNC(=O)C2CNC(=O)C2)c(C)c1C (stereo not drawn)	79.3
Clc1ccc(C2=NN(c3ccccc3)C(c3ccccc3Cl)C2)cc1 (stereo not drawn)	91
CCS(=O)(=O)CC(C)N(C)c1cnc(C#N)cn1 (stereo not drawn)	83.8
Cc1cc(C(C)(C)c2cc(C)c(N)c(C)c2)cc(C)c1N	57.8

Block 3
Cell line: A-375
Tested at: 100 µM
Time: 18 h
SMILES	viability
C[C@H](CCC(=O)O)[C@H]1CC[C@H]2[C@@H]3[C@@H](O)C[C@@H]4C[C@H](O)CC[C@]4(C)[C@H]3CC[C@]12C	92.2%
CC1=C(C/C=C(\C)CCC[C@H](C)CCC[C@H](C)CCCC(C)C)C(=O)c2ccccc2C1=O	81.9%
COCCCC/C(=N\OCCN)c1ccc(C(F)(F)F)cc1	8.71%

Block 4
SMILES: O=C(Nc1cccnn1)N1CC(C/C=C/c2cncc(Oc3ccc(C(F)(F)F)cn3)n2)C1
Read-out: cell-free assay
Technique: competition with immobilised ligand
Tested at: 1 µM
target	remaining binding
Myosin light chain kinase family member 4 (MYLK4, Homo sapiens, UniProt Q86YV6)	100%
Non-receptor tyrosine-protein kinase TYK2, JH1 (TYK2, Homo sapiens, UniProt P29597)	82%
Receptor-type tyrosine-protein kinase FLT3 (FLT3, Homo sapiens, UniProt P36888, D835H)	100%
Ephrin type-A receptor 7 (EPHA7, Homo sapiens, UniProt Q15375)	100%

Block 5
Target: Inhibitor of nuclear factor kappa-B kinase subunit alpha (CHUK, Homo sapiens, UniProt O15111)
Chain of UniProt O15111 (whole entry, looked up): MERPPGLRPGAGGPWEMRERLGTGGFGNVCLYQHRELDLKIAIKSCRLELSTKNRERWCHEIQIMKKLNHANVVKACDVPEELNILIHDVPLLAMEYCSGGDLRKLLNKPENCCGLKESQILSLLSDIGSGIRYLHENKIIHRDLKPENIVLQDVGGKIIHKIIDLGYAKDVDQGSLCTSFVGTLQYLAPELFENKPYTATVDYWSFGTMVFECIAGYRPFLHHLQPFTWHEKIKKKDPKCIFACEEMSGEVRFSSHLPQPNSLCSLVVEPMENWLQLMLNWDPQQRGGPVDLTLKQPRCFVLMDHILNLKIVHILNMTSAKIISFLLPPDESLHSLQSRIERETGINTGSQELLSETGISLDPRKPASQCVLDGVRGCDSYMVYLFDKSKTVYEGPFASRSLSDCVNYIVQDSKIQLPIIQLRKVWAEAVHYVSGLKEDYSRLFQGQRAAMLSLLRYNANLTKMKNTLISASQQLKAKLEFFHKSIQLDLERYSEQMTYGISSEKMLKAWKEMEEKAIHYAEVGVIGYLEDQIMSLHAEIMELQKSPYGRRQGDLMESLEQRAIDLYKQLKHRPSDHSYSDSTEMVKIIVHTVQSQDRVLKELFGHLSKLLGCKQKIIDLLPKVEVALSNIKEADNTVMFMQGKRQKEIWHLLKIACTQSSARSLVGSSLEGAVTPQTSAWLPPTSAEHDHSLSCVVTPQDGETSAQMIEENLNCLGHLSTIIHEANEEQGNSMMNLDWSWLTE
Read-out: enzyme activity
Action: inhibitor
Tested at: 0.5 µM
Relative to: control
SMILES	remaining activity
O=c1c2ccccc2[nH]c(=S)n1CCN1CCC(=C(c2ccc(F)cc2)c2ccc(F)cc2)CC1	95%
O=C(Nc1cccc(Nc2cc(Nc3cccc(C(F)(F)F)c3)ncn2)c1)C1CC1	95.6%
Nc1[nH]nc2nc3ccccc3nc12	85.9%
Oc1ccc(-c2nc(-c3ccncc3)c(-c3ccc(F)cc3)[nH]2)cc1	107%
O=C(O)c1ccc2c3c1cccc3c(=O)n1c3ccccc3nc21	114%
OCC(O)CCON=C1C(c2c(O)[nH]c3ccccc23)=Nc2ccccc21 (stereo not drawn)	96.6%
NCCNc1ncc(C(N)=O)c(Nc2cccc(C(F)(F)F)c2)n1	101%
COc1cc2ncnc(Nc3ccc(Oc4ccccc4)cc3)c2cc1OC	101%
CO[C@H]1C[C@@H]2CC[C@@H](C)[C@@](O)(O2)C(=O)C(=O)N2CCCC[C@H]2C(=O)O[C@H]([C@H](C)C[C@@H]2CC[C@@H](O)[C@H](OC)C2)CC(=O)[C@H](C)/C=C(\C)[C@@H](O)[C@@H](OC)C(=O)[C@H](C)C[C@H](C)/C=C/C=C/C=C/1C	110%
Nc1ncnc2n[nH]c(Nc3ccc(F)cc3)c12	99.5%
Cc1cccc(-c2[nH]c(C(C)(C)C)nc2-c2ccc3c(c2)OCO3)n1	108%
Cn1c2ccccc2c2c3c(c4c5ccccc5n(CCC#N)c4c21)CNC3=O	102%
CN(C)c1ccc(C=C2C(=O)Nc3ccccc32)cc1	93.4%
